Published values gathered from unrelated publications.
Protocols differ between the studies behind these lines. ± gives the spread as reported.
Sequence of UniProt P29994 (whole entry, looked up): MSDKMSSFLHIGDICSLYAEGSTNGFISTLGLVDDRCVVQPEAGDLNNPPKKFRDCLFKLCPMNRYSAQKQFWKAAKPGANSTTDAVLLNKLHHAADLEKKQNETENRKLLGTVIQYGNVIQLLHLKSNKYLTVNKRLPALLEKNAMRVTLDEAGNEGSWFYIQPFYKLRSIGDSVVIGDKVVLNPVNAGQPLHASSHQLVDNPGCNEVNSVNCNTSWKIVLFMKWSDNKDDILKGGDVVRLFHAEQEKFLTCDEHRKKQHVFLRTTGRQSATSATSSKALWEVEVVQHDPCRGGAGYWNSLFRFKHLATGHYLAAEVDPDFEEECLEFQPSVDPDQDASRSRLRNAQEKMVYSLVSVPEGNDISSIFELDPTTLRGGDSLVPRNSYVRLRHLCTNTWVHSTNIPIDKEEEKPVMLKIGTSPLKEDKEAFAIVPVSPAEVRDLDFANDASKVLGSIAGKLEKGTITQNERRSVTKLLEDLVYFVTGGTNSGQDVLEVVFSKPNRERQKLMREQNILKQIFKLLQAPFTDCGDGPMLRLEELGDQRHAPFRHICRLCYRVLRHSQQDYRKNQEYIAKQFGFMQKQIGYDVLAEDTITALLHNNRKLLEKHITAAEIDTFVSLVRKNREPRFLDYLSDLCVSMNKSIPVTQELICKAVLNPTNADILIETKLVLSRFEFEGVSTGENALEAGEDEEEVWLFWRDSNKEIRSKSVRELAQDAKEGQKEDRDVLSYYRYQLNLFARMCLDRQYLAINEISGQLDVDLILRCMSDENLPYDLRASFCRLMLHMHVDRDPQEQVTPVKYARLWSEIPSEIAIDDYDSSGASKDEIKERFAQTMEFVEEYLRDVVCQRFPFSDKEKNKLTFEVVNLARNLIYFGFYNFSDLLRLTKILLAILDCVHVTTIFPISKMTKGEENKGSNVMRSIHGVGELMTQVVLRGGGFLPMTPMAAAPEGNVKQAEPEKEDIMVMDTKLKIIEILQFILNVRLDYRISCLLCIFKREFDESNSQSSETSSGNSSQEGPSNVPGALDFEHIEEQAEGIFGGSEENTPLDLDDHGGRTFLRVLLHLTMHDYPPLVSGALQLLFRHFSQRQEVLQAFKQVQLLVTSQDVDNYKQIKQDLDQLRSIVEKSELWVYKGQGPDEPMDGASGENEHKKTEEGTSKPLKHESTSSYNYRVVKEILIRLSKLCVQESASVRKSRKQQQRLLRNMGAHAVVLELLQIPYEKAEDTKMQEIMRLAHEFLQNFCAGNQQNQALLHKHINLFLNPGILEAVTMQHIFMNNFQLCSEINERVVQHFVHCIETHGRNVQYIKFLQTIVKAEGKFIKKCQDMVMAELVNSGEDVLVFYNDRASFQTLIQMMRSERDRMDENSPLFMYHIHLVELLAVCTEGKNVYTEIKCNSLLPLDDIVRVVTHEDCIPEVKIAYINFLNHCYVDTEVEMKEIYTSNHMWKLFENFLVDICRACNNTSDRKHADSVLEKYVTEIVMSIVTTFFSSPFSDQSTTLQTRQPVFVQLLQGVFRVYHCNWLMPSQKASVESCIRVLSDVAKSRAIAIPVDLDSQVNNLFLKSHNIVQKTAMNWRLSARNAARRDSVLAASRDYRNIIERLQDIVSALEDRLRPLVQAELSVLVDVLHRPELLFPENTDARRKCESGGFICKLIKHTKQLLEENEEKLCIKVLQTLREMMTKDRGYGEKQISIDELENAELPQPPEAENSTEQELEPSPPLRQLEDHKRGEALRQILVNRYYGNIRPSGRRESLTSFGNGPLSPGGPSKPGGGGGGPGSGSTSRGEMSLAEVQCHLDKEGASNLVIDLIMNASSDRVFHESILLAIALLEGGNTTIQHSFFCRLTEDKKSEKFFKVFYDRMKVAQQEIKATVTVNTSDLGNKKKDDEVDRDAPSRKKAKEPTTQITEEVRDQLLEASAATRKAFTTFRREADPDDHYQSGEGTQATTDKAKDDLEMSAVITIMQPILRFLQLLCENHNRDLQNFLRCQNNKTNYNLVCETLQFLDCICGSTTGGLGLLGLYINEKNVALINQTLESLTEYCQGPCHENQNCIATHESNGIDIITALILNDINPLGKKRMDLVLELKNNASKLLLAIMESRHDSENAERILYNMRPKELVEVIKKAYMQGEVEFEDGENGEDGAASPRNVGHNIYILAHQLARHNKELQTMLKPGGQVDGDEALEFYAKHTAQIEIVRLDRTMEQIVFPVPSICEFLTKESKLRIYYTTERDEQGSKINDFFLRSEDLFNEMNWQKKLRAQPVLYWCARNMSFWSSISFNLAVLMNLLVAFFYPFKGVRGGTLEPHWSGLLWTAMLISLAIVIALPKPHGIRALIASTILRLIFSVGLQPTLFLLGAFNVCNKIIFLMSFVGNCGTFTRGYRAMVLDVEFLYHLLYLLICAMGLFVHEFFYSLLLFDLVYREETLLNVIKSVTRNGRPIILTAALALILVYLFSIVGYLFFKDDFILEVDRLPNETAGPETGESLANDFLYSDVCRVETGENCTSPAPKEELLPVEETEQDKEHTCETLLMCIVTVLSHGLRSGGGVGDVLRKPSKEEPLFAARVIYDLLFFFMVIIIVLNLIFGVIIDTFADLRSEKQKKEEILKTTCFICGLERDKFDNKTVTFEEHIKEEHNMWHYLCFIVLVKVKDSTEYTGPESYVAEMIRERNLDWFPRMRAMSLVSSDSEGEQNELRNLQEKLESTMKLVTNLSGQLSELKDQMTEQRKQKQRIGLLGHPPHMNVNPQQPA
Sequence of UniProt P27487 (whole entry, looked up): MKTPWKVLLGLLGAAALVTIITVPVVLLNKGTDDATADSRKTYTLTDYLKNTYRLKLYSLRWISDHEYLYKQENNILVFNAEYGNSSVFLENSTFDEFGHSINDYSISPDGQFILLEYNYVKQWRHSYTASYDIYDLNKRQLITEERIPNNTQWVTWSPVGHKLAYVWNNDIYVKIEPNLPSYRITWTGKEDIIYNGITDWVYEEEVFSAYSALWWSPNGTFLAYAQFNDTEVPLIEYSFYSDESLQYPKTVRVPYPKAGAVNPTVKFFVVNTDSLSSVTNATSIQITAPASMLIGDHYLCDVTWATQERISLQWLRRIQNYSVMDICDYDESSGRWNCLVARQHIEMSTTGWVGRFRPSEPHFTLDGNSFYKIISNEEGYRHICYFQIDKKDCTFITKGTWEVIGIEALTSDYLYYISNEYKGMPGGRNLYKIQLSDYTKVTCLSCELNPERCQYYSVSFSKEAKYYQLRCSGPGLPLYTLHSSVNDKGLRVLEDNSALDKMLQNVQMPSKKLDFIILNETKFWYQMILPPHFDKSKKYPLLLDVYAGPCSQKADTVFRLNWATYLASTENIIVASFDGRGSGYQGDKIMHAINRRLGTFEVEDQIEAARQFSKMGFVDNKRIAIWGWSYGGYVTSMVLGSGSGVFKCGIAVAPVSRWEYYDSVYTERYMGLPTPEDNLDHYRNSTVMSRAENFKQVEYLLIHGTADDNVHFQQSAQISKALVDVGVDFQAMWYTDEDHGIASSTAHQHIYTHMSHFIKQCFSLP
Sequence of UniProt P19099 (whole entry, looked up): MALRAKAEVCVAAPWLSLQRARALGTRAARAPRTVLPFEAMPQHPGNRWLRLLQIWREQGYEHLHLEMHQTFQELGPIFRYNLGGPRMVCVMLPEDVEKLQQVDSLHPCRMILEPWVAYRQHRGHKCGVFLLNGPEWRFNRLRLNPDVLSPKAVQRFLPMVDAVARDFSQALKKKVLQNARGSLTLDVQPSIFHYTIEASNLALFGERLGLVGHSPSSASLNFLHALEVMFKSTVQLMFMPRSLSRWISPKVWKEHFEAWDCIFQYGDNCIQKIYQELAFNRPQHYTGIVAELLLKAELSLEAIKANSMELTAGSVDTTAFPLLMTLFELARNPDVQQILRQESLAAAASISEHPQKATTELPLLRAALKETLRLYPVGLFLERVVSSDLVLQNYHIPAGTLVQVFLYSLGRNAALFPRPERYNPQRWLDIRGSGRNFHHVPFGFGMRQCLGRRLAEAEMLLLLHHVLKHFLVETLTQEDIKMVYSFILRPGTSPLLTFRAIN
Sequence of UniProt Q07869 (whole entry, looked up): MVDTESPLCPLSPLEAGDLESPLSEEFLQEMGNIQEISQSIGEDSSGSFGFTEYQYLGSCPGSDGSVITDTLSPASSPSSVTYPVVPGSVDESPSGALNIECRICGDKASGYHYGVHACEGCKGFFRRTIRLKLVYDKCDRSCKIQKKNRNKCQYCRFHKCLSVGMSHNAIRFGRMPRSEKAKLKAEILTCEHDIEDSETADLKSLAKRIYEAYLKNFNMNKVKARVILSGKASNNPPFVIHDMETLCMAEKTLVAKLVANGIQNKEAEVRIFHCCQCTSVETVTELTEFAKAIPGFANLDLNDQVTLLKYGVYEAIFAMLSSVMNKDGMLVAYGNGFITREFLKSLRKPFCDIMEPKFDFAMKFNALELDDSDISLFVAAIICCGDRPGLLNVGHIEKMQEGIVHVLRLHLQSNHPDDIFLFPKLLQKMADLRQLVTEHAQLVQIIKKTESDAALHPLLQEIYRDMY
Sequence of UniProt Q9Y294 (whole entry, looked up): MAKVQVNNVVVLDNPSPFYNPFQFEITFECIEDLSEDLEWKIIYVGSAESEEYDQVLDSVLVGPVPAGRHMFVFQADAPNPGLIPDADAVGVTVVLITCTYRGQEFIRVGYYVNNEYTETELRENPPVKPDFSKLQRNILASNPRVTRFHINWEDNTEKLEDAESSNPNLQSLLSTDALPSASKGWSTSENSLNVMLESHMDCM

| Compound | target | assay | system | conditions | scale | measurement | value |
| --- | --- | --- | --- | --- | --- | --- | --- |
| COC(=O)c1ccc(/C=N/NS(=O)(=O)c2ccc(OC)c(OC)c2)cc1 | Dipeptidyl peptidase 4 (DPP4, Homo sapiens, UniProt P27487) | enzyme activity, inhibitor |  |  |  | IC50 | inactive |
| Nc1ncnc2c1ncn2[C@@H]1O[C@H](CO)[C@@H](O[C@H]2O[C@H](CO)[C@@H](OP(=O)(O)O)[C@H](OP(=O)(O)O)[C@H]2O)[C@H]1O | Inositol 1,4,5-trisphosphate-gated calcium channel ITPR1, IP3-binding core (Itpr1, Rattus norvegicus, UniProt P29994) | binding, 3H-IP3 competition |  | IP3-binding core IBC |  | Hill coefficient | 0.8 ± 0.1 |
| Nc1ncnc2c1ncn2[C@H]1C[C@H](O)[C@@H](COP(=O)(O)OP(=O)(O)[C@@H](F)P(=O)(O)O)O1 | DNA polymerase eta (POLH, Homo sapiens, UniProt Q9Y253) | dNTP incorporation, single-turnover kinetics |  | W sequence, A·T pair | baseline: non-enzymatic LFER line | delta effective pKa4 | 0.2 pK units |
| CC[C@H](C)[C@H](NC(=O)[C@H](CO)NC(=O)[C@H](Cc1ccc(O)cc1)NC(=O)[C@H](CC(=O)O)NC(=O)[C@H](CO)NC(=O)[C@@H](NC(=O)[C@H](Cc1ccccc1)NC(=O)[C@@H](NC(=O)CNC(=O)[C@@H]1CCCN1C(=O)[C@H](C)NC(=O)[C@@H](N)Cc1ccc(O)cc1)[C@@H](C)O)[C@@H](C)CC)C(=O)N[C@@H](C)C(=O)N[C@@H](CCSC)C(=O)N[C@@H](CC(=O)O)C(=O)N[C@@H](CCCCN)C(=O)N[C@H](C(=O)N[C@@H](CCCNC(=N)N)C(=O)N[C@@H](CCC(N)=O)C(=O)N[C@@H](CCC(N)=O)C(=O)N[C@@H](CC(=O)O)C(=O)N[C@@H](Cc1ccccc1)C(=O)N[C@H](C(=O)N[C@@H](CC(N)=O)C(=O)N[C@@H](Cc1c[nH]c2ccccc12)C(=O)N[C@@H](CC(C)C)C(=O)N[C@@H](CC(C)C)C(=O)N[C@@H](C)C(=O)N[C@@H](CCC(N)=O)C(=O)N[C@@H](CCCCN)C(=O)NCC(=O)N[C@@H](CCCCN)C(=O)N[C@@H](CCCCN)C(=O)N[C@@H](CC(N)=O)C(=O)N[C@@H](CC(=O)O)C(=O)N[C@@H](Cc1c[nH]c2ccccc12)C(=O)N[C@@H](CCCCN)C(=O)N[C@@H](Cc1c[nH]cn1)C(=O)N[C@@H](CC(N)=O)C(=O)N[C@@H](CC(C)C)C(=O)N[C@H](C(=O)N[C@@H](CCC(N)=O)C(=O)O)[C@@H](C)O)C(C)C)[C@@H](C)CC | Gastric inhibitory polypeptide receptor (Rattus norvegicus, UniProt P43219) | cAMP, agonist | COS-7 |  |  | Emax | 64% |
| C[C@]12CC[C@H]3[C@@H](CCC4=CC(=O)CC[C@@]43C)[C@@H]1CC[C@@H]2C(=O)CO | Cytochrome P450 11B2, mitochondrial (CYP11B2, Homo sapiens, UniProt P19099) | substrate |  |  | baseline: 40-fold over equimolar adrenodoxin | kcat increase | 7 fold |
| OC[C@H]1O[C@@H](OCc2cn([C@@H]3O[C@H](CO)[C@@H](n4cc(CCCCc5cn([C@H]6[C@H](O)[C@@H](O)[C@H](n7cc(CO[C@@H]8O[C@H](CO)[C@H](O)[C@H](O)[C@H]8O)nn7)O[C@@H]6CO)nn5)nn4)[C@H](O)[C@H]3O)nn2)[C@H](O)[C@@H](O)[C@H]1O | PA-I galactophilic lectin (lecA, Pseudomonas aeruginosa, UniProt Q05097) | isothermal titration calorimetry |  | 298 K |  | -TΔS | 3.6 ± 0.3 kcal/mol |
| CC[C@H](C)[C@H](NC(C)=O)C(=O)N[C@H]1CSSC[C@@H](C(=O)N[C@H](C(N)=O)[C@@H](C)O)NC(=O)[C@H](CCCNC(=N)N)NC(=O)[C@H](Cc2c[nH]cn2)NC(=O)[C@H](C)NC(=O)CNC(=O)[C@H](Cc2c[nH]c3ccccc23)NC(=O)[C@H](CC(=O)O)NC(=O)[C@H](CCC(N)=O)NC(=O)[C@H](Cc2ccc3ccccc3c2)NC(=O)[C@H](C(C)C)NC1=O | Complement C3 (Homo sapiens, UniProt P01024) | isothermal titration calorimetry |  |  | baseline: 1-methyltryptophan reference | -TΔΔS | -2.1 kcal/mol |
| Cn1ccc(-c2cc(Cl)c(Cl)c3[nH]c4c(c23)CN(C(=O)CO)CC4)n1 | Cyclic GMP-AMP synthase (CGAS, Homo sapiens, UniProt Q8N884) | surface plasmon resonance |  | concentration not given, with: ATP |  | binding | no binding |
| COc1cc2c(cc1OC)C(c1ccc(F)cc1F)N(CCCOc1ccc(CCC(=O)O)cc1)CC2 (stereo not shown) | Peroxisome proliferator-activated receptor alpha (PPARA, Homo sapiens, UniProt Q07869) | TR-FRET competitive binding |  | 500 pM to 100 µM |  | binding | no binding |
| CC[C@H](C)[C@H](NC(=O)[C@H](CCCNC(=N)N)NC(=O)NC[C@H](CCC(N)=O)NC(=O)NC[C@H](CC(C)C)NC(=O)NC[C@H](CCCNC(=N)N)NC(=O)NC[C@H](C)NC(=O)[C@H](CCCCN)NC(=O)[C@H](CCC(=O)O)NC(C)=O)C(=O)N[C@@H](C)C(N)=O | Histone chaperone ASF1A (Homo sapiens, UniProt Q9Y294) | isothermal titration calorimetry |  | concentration not given, pH 7.5, 20 °C |  | binding stoichiometry | 1.1 ± 0.2 |

Some of these lines once more:
| Compound | target | assay | system | conditions | scale | measurement | value |
| --- | --- | --- | --- | --- | --- | --- | --- |
| C[C@]12CC[C@H]3[C@@H](CCC4=CC(=O)CC[C@@]43C)[C@@H]1CC[C@@H]2C(=O)CO | Cytochrome P450 11B2, mitochondrial (CYP11B2, Homo sapiens, UniProt P19099) | substrate |  |  | baseline: 40-fold over equimolar adrenodoxin | kcat increase | 7 fold |
